Experimental data of several laboratories.
“And” joins repeats or separate records; there may be more than shown. ± marks the error that the study gave.

Compound | test | test system | setting | scale | quantity | value
O=C(O)Cc1ccc(O)cc1 | DPPH radical |  | 300 µg/mL |  | radical scavenging | 9.5 ± 0.72%
CO[C@H]1CC[C@H](N2C(=O)CNc3ncc(-c4ccc(C(C)(C)O)nc4)nc32)CC1 | flow cytometry | stimulated B cells, human, blood | 60 mg single dose, 3 h, mean | reference: baseline | pS6RP change from baseline | -72.2%
Oc1nc2nonc2cc1Nc1c(F)c(F)c(F)c(F)c1F |  | obese C57BL/6J mice, Western diet 19 weeks | oral gavage, 130 mg/kg/day, fasting |  | plasma free fatty acids | no effect
NC(=O)c1cnc2[nH]ccc2c1N[C@@H]1[C@@H]2CC3C[C@H]1C[C@@](O)(C3)C2 | flow cytometry, item: CD8+ effector memory T cells | Japanese healthy subjects, peripheral blood | oral, 100 mg twice daily, day 4 |  | change from baseline | 0.18%
C=CCn1c(=O)c2cnc(Nc3ccc(N4CCN(C)CC4)cc3)nc2n1-c1ccc2c(n1)[C@@](O)(CC)CC2 |  | HT-29 xenograft, BALB/c nude mice | oral, 60 mg/kg once daily x 22, day 21 |  | tumour volume difference | 993 ± 36.5 mm3
CC1(C)CCC(CN2CCN(c3ccc(C(=O)NS(=O)(=O)c4ccc(NCC5CCOCC5)c([N+](=O)[O-])c4)c(Oc4cnc5[nH]ccc5c4)c3)CC2)=C(c2ccc(Cl)cc2)C1 | cell kill | primary neoplastic T lymphocytes, dog 17 | 24 h, T-cell CLL |  | EC50 | 43 nM
CC(C)(COP(=O)(O)OP(=O)(O)OC[C@H]1O[C@@H](n2cnc3c(N)ncnc32)[C@H](O)[C@@H]1OP(=O)(O)O)[C@@H](O)C(=O)NCCC(=O)NCCS | binding, equilibrium dialysis LC-MS |  | 5 µM, thermostabilized A2AR-BRIL construct | reference: no-protein control, direction not given | z-scored log2 fold change | -1.87
C[C@@H](O)CCOC(=O)C[C@@H](C)O | item: C18:1-DC acylcarnitine | human, plasma | 60 min, log2-transformed values |  | metabolite level | -6.81 ± 0.76 µmol/L
N#Cc1ccc2c(c1)[C@H]1CCCN(C(=O)c3ccc4[nH]cnc4c3)[C@H]1C2 | item: systolic blood pressure | human | 240 mg once daily, day 28, adjusted mean | reference: placebo | change from baseline | 0.4 mmHg
Cc1ccc(NC(=O)c2ccnc(C(F)(F)F)c2)cc1-c1cc(OCCO)nc(N2CCOCC2)c1 |  | cancer patients, tumour biopsies | dose not given, cycle 15 day 1, median across doses single-agent | reference: baseline | DUSP6 mRNA reduction | 21.6%
Cc1c(NC(=O)c2cccnc2)c(=O)n(-c2ccccc2)n1C | histology | Dmd C3333Y mice, heart | dose not given |  | fibrotic area | 3.8% and 5.4% and 4.6% and 3.9% and 4.2%
COc1cc(C(O)C(=O)O)ccc1O (racemic) | binding, equilibrium dialysis LC-MS |  | 5 µM, thermostabilized A2AR-BRIL construct | reference: no-protein control, direction not given | z-scored log2 fold change | -1.18
O=C(O)CNC(=O)Cc1ccccc1 |  | ventricular cardiomyocytes, C57BL/6 mouse | dose not given, 0.484 s |  | sarcomere length | 1.66 µm
CN(C)C(=O)c1cc2cnc(Nc3ccc(N4CCNCC4)cn3)nc2n1C1CCCC1 | RNA-seq GSEA, item: HALLMARK_P53_PATHWAY | MB002 tumour | concentration not given, in vivo | reference: vehicle, direction not given | GSEA enrichment score | -0.285
COC(=O)CCc1ccc(OCC(O)CNC(C)C)cc1 (stereo not shown) | pulse pressure wave equation | healthy male humans | dose not given, 5 min, added: saline | reference: baseline | stroke volume change | 0.9%
CN(C)C(=O)Oc1cccc([N+](C)(C)C)c1 | neuromuscular block reversal | rat | dose not given, 7.5 (unit not given), added: cisatracurium | reference: T1 twitch | train-of-four ratio | 57
C[C@H]1C[C@H]2CSC(N)=N[C@@]2(c2nc(NC(=O)c3ccc(OC(F)F)cn3)cs2)CO1 | item: Aβx-40 | healthy adults, plasma | 3 mg single dose, 4 h post-dose | reference: placebo | percent change from baseline | -34.1%
CC(c1cc2ccccc2s1)N(O)C(N)=O (stereo not shown) | item: PGE2 | human blood | 3 µM, added: Escherichia coli stimulation |  | lipid mediator level | 706 ± 395 pg/mL blood
CCOC(=O)NCc1ccc(O)cc1 | ABTS radical |  | 300 µg/mL |  | radical scavenging | 50.7 ± 1.19%
N#Cc1ccc2c(c1)[C@H]1CCCN(C(=O)c3ccc4[nH]cnc4c3)[C@H]1C2 |  | T2DM patients with overweight or obesity, urine | oral, 40 mg, day 1, 0-24 h, multiple dosing, adjusted geometric mean | reference: baseline day -1, -24-0 h | total urinary corticosteroid excretion | 194%
c1ccc(-c2n[nH]cc2-c2ccnc3ccccc23)nc1 | kinase binding, competitor, MIB/MS competition, item: MCK1 | Candida albicans cell lysate | 10 µM | reference: DMSO | log2 fold change | 0.8
C[C@H](Oc1ccc(Br)cc1-c1ccon1)C(=O)O | muscle velocity recovery cycle | human, tibialis anterior muscle | 600 mg once daily, first response latency at 15 Hz, multiple ascending dose |  | difference from placebo | -0.102%
N#Cc1ccc2c(-c3ccncc3)c(-c3ccc(F)cc3)nn2c1 | kinase binding, competitor, MIB/MS competition, item: RIM11 | Candida albicans cell lysate | 1 µM | reference: DMSO | log2 fold change | -0.13

Compound | test | test system | setting | scale | quantity | value
Nc1nc2c(ncn2[C@H]2C[C@H](O)[C@@H](CO)O2)c(=O)[nH]1 | binding, equilibrium dialysis LC-MS |  | 5 µM, thermostabilized A2AR-BRIL construct | reference: no-protein control, direction not given | z-scored log2 fold change | 0.56
CC(C)NCC(O)c1ccc(O)c(O)c1 (stereo not shown) |  | ventricular cardiomyocytes, C57BL/6 mouse | dose not given, 0.332 s |  | sarcomere length | 1.72 µm
CN(C)C(=O)Nc1cccc(-c2ccc(N(C)C)cc2)c1 |  | mouse high-fat diet | dose not given | reference: body weight | eWAT weight | 5.39% and 4.23% and 3.85% and 3.46% and 4.81% and 5.46%
COc1ccc(-c2cncc(N[C@@H](C)c3cccc(NC(=O)c4cncc(C)c4)c3)n2)cc1OC | item: rno-miR-142-5p | rat SU5416/hypoxia model, lung | dose not given | reference: SU5416/hypoxia vehicle | fold change | 0.745
COc1cc2cc(-c3ccc(CC(=O)Nc4cc(C(C)(C)C(F)(F)F)no4)cn3)cnc2cc1OC |  | human RET fusion-positive NSCLC | 75 mg, phase I, RECIST 1.1 |  | objective response rate | 42%
O=P(O)(O)C(Cl)(Cl)P(=O)(O)O | immunostaining | mouse, SAH model, meninges | dose not given, day 1 | reference: total area | Iba1-positive area | 0.82%
CC(C)C[C@H](N)C(=O)O | binding, equilibrium dialysis LC-MS |  | 5 µM, thermostabilized A2AR-BRIL construct | reference: no-protein control, direction not given | z-scored log2 fold change | 0.152
OC(CCN1CCCCC1)(c1ccccc1)C1CC2C=CC1C2 (stereo not shown) | resting-state EEG | healthy elderly humans | oral, 4 mg, eyes open, LS mean | reference: baseline | change in EEG Beta1-power Pz-O1 | -8.5%
NC(=O)NCc1ccc(O)cc1 | ABTS radical |  | 300 µg/mL |  | radical scavenging | 53.8 ± 1.7%
O=c1[nH]c(=O)c2nc[nH]c2[nH]1 | binding, equilibrium dialysis LC-MS |  | 5 µM, thermostabilized A2AR-BRIL construct | reference: no-protein control, direction not given | z-scored log2 fold change | 0.644
CCN1CCN(Cc2ccc(Nc3ncc(F)c(-c4cc(F)c5nc6n(c5c4)[C@H](C)CCC6)n3)nc2)CC1 |  | human advanced solid tumours | 300 mg, phase Ia monotherapy RECIST 1.1 |  | objective response rate | 0%
Cc1c(C)n(Cc2cccc(OC(C)(C)C(=O)O)c2)c2ccc(C(=O)N[C@@H](C)c3ccc(C(C)(C)C)cc3)cc12 |  | C57BL/6 mouse, diet-induced obesity, L4 vertebra | dose not given |  | tissue volume | 2.79 ± 0.176 mm3
O=C(OC(C(F)(F)F)C(F)(F)F)N1CCN(Cc2cccc(Oc3ccccc3)c2)CC1 | PET blocking study | rhesus monkey, brain Pons | 0.01 mg/kg, compound pretreatment, added: [18F]T-401 tracer |  | k4 | 0.0963 min⁻¹
O=C(O)C(O)CO (stereo not shown) | binding, equilibrium dialysis LC-MS |  | 5 µM, thermostabilized A2AR-BRIL construct | reference: no-protein control, direction not given | z-scored log2 fold change | 0.431
C[C@H]1O[C@@H](O[C@H]2CC[C@@]3(C)[C@@H](CC[C@]4(C)[C@@H]3C=C[C@]35OC[C@@]6(CCC(C)(C)C[C@H]63)[C@@H](O)C[C@]54C)[C@]2(C)CO)[C@H](O)[C@@H](O[C@@H]2O[C@H](CO)[C@@H](O)[C@H](O)[C@H]2O)[C@H]1O | Western blot, item: Mtor | chronic-plus-binge ethanol-fed mice, liver | dose not given, medium dose, unit not given | reference: β-actin | protein level | 0.728 and 0.673 and 1.12
CC(C)c1ncc(C(=O)N2CCOC3(CCN(Cc4ccc(F)c(CCNC[C@H](O)c5ccc(O)c6[nH]c(=O)sc56)c4)CC3)C2)s1 |  | COPD patients | 58 µg single, 24 h, day 1 | reference: baseline, placebo-corrected | trough FEV1 change | 48 mL
NC1(C(=O)N[C@@H](CCO)c2ccc(Cl)cc2)CCN(c2nc[nH]c3nccc2-3)CC1 | RECIST v1.1 | human mCRPC patients | dose not given, added: enzalutamide |  | RECIST non-response rate | 88.9%
CCC(C)C(=O)NCC(=O)O (stereo not shown) | binding, equilibrium dialysis LC-MS |  | 5 µM, thermostabilized A2AR-BRIL construct | reference: no-protein control, direction not given | z-scored log2 fold change | -1.03
N#Cc1ccn2c(-c3ccncc3)c(-c3ccc(F)cc3)nc2c1 | kinase binding, competitor, MIB/MS competition, item: HRK1 | Candida albicans cell lysate | 10 µM | reference: DMSO | log2 fold change | -0.35
COc1ccccc1[C@H](Cn1c(=O)n(C(C)(C)C(=O)O)c(=O)c2c(C)c(-c3ncco3)sc21)OC1CCOCC1 |  | human | 200 mg, post-treatment |  | blood Glucose level | 91.9 ± 6.42 mg/dL
Cc1noc(C)c1-c1cc(C(O)(c2ccccn2)c2ccccn2)c2nc(C3CC3)[nH]c2c1 | item: HEXIM1 expression | human, peripheral blood | 3 mg, day 1, 1599 study |  | maximum induction | 9.9%
O=C(COP(=O)(O)O)[C@@H](O)[C@H](O)[C@H](O)COP(=O)(O)O | binding, equilibrium dialysis LC-MS |  | 5 µM, thermostabilized A2AR-BRIL construct | reference: no-protein control, direction not given | z-scored log2 fold change | -0.421
C[C@@H](NC(=O)N1C(=O)[C@H](Cc2ccnc(N)c2)[C@H]1C(=O)O)C1CCCCC1 |  | human | iv infusion, 2.25 mg/kg/h, 24 h, unit not given | reference: baseline | ACT Emax | 1.07

For quick reference, copied from above:
Compound | test | test system | setting | scale | quantity | value
Nc1nc2c(ncn2[C@H]2C[C@H](O)[C@@H](CO)O2)c(=O)[nH]1 | binding, equilibrium dialysis LC-MS |  | 5 µM, thermostabilized A2AR-BRIL construct | reference: no-protein control, direction not given | z-scored log2 fold change | 0.56
O=C(OC(C(F)(F)F)C(F)(F)F)N1CCN(Cc2cccc(Oc3ccccc3)c2)CC1 | PET blocking study | rhesus monkey, brain Pons | 0.01 mg/kg, compound pretreatment, added: [18F]T-401 tracer |  | k4 | 0.0963 min⁻¹
COc1ccccc1[C@H](Cn1c(=O)n(C(C)(C)C(=O)O)c(=O)c2c(C)c(-c3ncco3)sc21)OC1CCOCC1 |  | human | 200 mg, post-treatment |  | blood Glucose level | 91.9 ± 6.42 mg/dL
